# Results collected from several papers.
# Protocols differ between the studies behind these lines. Numbers after ± are the reported error.
# TDP1: Tyrosyl-DNA phosphodiesterase 1 (TDP1, Homo sapiens, UniProt Q9NUW8)
# UniProt Q9NUW8, sequence (whole entry, looked up): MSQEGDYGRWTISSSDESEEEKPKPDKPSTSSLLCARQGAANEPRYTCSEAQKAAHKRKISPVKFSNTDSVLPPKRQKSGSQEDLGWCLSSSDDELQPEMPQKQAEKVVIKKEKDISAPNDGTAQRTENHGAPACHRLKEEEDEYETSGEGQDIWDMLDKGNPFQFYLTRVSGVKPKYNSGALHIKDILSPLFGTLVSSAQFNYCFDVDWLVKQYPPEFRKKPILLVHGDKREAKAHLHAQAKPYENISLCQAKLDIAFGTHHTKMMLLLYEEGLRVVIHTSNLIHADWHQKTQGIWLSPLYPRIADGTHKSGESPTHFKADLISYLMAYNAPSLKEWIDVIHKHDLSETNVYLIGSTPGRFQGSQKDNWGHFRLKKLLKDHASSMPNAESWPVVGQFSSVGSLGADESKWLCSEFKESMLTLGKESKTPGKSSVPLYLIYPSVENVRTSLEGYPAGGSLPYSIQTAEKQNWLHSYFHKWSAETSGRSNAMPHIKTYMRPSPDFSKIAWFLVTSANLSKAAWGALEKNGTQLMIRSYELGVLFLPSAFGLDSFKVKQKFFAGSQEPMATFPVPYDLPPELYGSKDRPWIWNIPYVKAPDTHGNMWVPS
SMILES,tested on,test,test system,conditions,how to read,measurement,value
O=C(O)c1c(O)cc(O[C@@H]2O[C@H](CO)[C@@H](O)[C@H](O)[C@H]2O)cc1/C=C/c1ccccc1,,crystal violet,"NCTC 1469, mouse","50 µM, 2 d",,viability,> 50%
CC(C)(c1cc(Br)c(O)c(Br)c1)c1cc(Br)c(O)c(Br)c1,,,whole cow milk,200 nM nominal,,dose fraction in skim milk,44.3%
O=C(Nc1cnccc1-c1ccc([18F])cc1)c1ccnc(NC(=O)C2CC2)c1,,,"FVB/NJ mice, both sexes, brain","intravenous, 15 min, median, P-gp inhibitor pretreatment, added: tariquidar 15 mg/kg iv",,SUV,0.47
CN(C)C(=O)c1ccnc(N2Cc3cn(Cc4ccc(F)cc4F)nc3C2)n1,,metabolic stability,"rat, liver microsomes",,,half-life,7.9 h
CC(C)[C@H](NC(=O)[C@H](Cc1c[nH]c2ccccc12)NC(=O)[C@H](CCCNC(=N)N)NC(=O)[C@H](CCCNC(=N)N)NC(=O)[C@@H](NC(=O)[C@@H](NC(=O)[C@H](CCCNC(=N)N)NC(=O)[C@@H](NC(=O)[C@@H](NC(=O)[C@H](CCCNC(=N)N)NC(=O)[C@H](CCCNC(=N)N)NC(=O)[C@@H](NC(=O)[C@H](Cc1c[nH]c2ccccc12)NC(=O)[C@H](CCCNC(=N)N)NC(=O)[C@H](CCCNC(=N)N)NC(=O)[C@@H](NC(=O)[C@H](CCCNC(=N)N)NC(=O)[C@H](CCCNC(=N)N)NC(=O)[C@@H](NC(=O)[C@H](Cc1c[nH]c2ccccc12)NC(=O)[C@H](CCCNC(=N)N)NC(=O)[C@@H](N)CCCNC(=N)N)C(C)C)C(C)C)C(C)C)C(C)C)C(C)C)C(C)C)C(C)C)C(=O)N[C@@H](CCCNC(=N)N)C(=O)N[C@@H](CCCNC(=N)N)C(=O)O,,dipstick,"CD1 mouse, urine","intravenous, 15 mg/kg, 16 h, [14C]-labelled compound",,specific gravity,1.01 g/mL
C=C(NC(=O)c1csc(-c2nc3c(cc2O)-c2nc(cs2)C(=O)NC(C(C)O)C(=O)NC(=C(C)OC)c2nc(cs2)C(=O)NC2c4nc(cs4)C(=O)NC(COC(=O)c4c5c6c(cccc6n4O)COC(=O)C(OC4CC(C)(O)C(N(C)C)C(C)O4)C2OC5)c2nc-3cs2)n1)C(N)=O (stereo not drawn),,,"ICR mice, Streptococcus pneumoniae ATCC 49169 infected, immunocompromised, blood","intravenous, 16 mg/kg/day twice daily",,AUC(0-inf),1330 ng·h/mL
CCCCN1C(=O)c2cccc3c(NCCCCCN4CCOCC4)ccc(c23)C1=O,,,ethyl acetate,,,emission maximum,508 nm
O=S(=O)(NCc1ccncc1)c1ccc(C2CCCCC2)cc1,,,CK-p25 mouse,0.3 mg/kg,relative to: vehicle,open field speed change,4 ± 1 cm/s
Cn1c(C=NOCc2ccc3nc(-c4ccccc4)c(Nc4ccc(C(=O)O)cc4)n3c2)c(Cl)c2ccccc21 (mixture of isomers),TDP1,"enzyme activity, inhibitor",,"100 µM, unpurified compound",,inhibition,32.3%
CCCCN1C(=O)c2cccc3c(NCCCCCCCCN4CCOCC4)ccc(c23)C1=O,,,water,pH 6.0,,fluorescence quantum yield,0.23
CC(C)(O)c1ncc([S@](N)(=O)=NC(=O)Nc2c3c(cc4c2CCC4)CCC3)s1,,refers to: nervous system disorders,healthy human volunteers,"oral, 50 mg twice daily, 14 days, enteric-coated tablet",,subjects with adverse events,29%
COc1cccc(OC)c1-c1cc(C(=O)NC2(C(=O)O)C3CC4CC(C3)CC2C4)nn1-c1ccc(C(=O)N(C)CCOCCN(C)C(=O)[C@H](CCCCNC(=O)[C@H](CC(C)C)NC(=O)C2OC2C(=O)O)NC(=O)CN2CCN(CC(=O)[O-])CCN(CC(=O)[O-])CCN(CC(=O)[O-])CC2)cc1C(C)C.[177Lu+3] (mixture of isomers),,,mouse HT-29 xenograft,"4 h, biodistribution",relative to: tumour over spleen,tumour-to-spleen ratio,7.95
Cc1[nH]nc2c1N=C(c1ccccc1Cl)c1cnc(N3CCOCC3)cc1N2,,,"nude mouse, HCC1806 xenograft, plasma","oral, 10 mg/kg once daily",,AUC(0-last),1190 ng·h/mL
CC[C@H](C)[C@@H]1NC(=O)[C@H](Cc2ccc(O)cc2)NC(=O)CCSCc2cccc(c2)CSCCNC(=O)[C@H](Cc2c[nH]cn2)NC(=O)[C@H](Cc2ccc(O)cc2)NC(=O)[C@H](CC(=O)O)NC(=O)[C@H](Cc2ccc(F)cc2)NC(=O)[C@H](CC(C)C)NC(=O)[C@H](CCCNC(=N)N)NC1=O,,PAMPA,,"200 µM, 5 h, pH 7.4",,membrane retention,< -0.27%
O=c1c2ccccc2[se]n1CCCCCCn1[se]c2ccccc2c1=O,,"shake-flask, RP-HPLC",propylene glycol,"24 h, 25 °C",,solubility,1050 ± 20 µg/mL
Cc1ccc(CN2C(=O)/C(=N\c3ccc(Cl)cc3Br)c3ccccc32)cc1,,,"mouse, blood",200 mg/kg,,MCH,15.3 ± 0.57 pg
CN(C)C(=O)c1ccc(N2Cc3cn(Cc4ccc(F)cc4)nc3C2)cc1,,metabolic stability,"rat, liver microsomes",,,half-life,0.817 h
COC(=O)c1c(C)oc2cc(Br)c(O)c(C=NOCc3ccc(-c4nc5cc(-c6ccccc6)ccn5c4Nc4ccc(C(=O)O)cc4)cc3)c12 (mixture of isomers),TDP1,"enzyme activity, inhibitor",,"100 µM, unpurified compound",,inhibition,66.9%
